Measured values collected from several papers.
Numbered parts are unrelated; each lists some results of a single study. ± marks the error that the study gave.
UniProt O75385, sequence (whole entry, looked up): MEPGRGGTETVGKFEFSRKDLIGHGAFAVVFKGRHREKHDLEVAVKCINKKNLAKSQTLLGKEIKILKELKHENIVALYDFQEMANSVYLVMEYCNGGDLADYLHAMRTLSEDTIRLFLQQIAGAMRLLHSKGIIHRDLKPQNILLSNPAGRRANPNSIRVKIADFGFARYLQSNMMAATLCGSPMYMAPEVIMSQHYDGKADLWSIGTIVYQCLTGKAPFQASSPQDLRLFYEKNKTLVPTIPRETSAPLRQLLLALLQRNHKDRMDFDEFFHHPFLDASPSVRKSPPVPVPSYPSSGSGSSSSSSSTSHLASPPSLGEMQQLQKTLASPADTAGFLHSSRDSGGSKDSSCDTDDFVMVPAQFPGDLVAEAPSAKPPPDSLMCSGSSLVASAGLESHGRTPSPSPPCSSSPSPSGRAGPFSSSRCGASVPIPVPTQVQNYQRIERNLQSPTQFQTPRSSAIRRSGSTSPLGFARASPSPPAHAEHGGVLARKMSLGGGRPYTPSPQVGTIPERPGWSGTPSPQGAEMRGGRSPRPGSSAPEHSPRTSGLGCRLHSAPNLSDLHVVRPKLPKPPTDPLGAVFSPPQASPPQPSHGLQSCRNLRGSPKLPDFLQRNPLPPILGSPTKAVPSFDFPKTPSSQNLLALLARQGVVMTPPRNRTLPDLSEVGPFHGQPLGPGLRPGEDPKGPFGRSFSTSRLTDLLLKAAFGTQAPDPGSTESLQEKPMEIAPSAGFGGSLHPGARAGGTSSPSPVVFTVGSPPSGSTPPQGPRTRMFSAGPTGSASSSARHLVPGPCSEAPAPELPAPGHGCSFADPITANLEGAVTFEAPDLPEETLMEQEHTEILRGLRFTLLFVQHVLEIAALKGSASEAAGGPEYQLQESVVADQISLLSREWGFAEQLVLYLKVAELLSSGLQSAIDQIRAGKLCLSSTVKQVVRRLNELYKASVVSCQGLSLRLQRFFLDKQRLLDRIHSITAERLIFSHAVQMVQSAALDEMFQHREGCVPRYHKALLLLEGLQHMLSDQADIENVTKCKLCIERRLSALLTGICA
UniProt Q13188, sequence (whole entry, looked up): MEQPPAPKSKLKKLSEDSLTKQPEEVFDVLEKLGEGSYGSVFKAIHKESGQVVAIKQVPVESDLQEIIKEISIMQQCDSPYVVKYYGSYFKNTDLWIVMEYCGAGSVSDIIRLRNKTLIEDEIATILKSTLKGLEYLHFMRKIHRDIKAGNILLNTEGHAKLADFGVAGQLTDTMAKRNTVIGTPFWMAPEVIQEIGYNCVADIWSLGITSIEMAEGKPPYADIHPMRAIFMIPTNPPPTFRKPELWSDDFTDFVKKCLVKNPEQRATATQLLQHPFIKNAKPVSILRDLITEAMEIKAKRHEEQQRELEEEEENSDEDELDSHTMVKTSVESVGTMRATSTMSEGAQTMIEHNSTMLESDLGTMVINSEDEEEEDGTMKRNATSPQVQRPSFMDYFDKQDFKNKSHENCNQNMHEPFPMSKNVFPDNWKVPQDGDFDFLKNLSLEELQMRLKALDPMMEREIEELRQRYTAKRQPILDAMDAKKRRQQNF
UniProt P21802, sequence (whole entry, looked up): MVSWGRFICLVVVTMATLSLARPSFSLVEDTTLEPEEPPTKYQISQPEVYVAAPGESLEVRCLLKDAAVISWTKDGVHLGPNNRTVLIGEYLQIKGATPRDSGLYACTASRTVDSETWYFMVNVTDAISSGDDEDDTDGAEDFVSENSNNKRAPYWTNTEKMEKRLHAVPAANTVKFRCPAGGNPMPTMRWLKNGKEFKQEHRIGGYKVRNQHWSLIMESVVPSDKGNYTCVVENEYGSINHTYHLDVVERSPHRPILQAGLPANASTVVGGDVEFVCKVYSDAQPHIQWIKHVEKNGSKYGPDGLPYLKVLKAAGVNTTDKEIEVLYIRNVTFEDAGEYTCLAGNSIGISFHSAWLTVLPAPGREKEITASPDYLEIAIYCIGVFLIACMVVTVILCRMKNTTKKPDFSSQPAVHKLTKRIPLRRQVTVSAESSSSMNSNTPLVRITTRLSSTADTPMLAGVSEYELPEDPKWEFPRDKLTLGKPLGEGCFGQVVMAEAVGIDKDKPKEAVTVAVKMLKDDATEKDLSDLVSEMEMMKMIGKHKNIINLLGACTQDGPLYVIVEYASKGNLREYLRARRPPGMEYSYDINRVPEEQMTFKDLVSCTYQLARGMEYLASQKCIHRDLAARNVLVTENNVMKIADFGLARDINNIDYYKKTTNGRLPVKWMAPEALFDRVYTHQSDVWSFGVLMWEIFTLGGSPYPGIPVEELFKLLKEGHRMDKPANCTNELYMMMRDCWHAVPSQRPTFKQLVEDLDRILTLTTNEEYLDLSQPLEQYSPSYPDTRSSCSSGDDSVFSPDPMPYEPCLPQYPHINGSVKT
UniProt P04629, sequence (whole entry, looked up): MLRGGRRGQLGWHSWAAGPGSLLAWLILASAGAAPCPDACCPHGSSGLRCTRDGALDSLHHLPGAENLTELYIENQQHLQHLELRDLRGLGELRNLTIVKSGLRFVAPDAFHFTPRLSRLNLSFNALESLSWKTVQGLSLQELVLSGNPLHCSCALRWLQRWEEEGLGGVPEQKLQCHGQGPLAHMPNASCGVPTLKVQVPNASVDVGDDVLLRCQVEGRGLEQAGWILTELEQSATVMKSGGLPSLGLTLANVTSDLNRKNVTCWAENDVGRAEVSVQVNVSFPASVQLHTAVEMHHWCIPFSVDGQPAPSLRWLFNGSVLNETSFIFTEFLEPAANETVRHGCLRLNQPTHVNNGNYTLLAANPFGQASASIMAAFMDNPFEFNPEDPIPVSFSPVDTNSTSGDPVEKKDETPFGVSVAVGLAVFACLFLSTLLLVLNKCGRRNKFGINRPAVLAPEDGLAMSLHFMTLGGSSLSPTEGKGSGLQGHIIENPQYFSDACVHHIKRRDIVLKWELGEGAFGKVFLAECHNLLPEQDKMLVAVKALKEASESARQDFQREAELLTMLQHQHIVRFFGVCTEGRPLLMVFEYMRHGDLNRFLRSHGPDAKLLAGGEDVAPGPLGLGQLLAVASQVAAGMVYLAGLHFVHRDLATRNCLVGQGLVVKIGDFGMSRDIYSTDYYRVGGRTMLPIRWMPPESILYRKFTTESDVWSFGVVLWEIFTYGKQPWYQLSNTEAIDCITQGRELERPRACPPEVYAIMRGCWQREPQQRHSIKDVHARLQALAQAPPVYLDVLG
UniProt P00519, sequence (whole entry, looked up): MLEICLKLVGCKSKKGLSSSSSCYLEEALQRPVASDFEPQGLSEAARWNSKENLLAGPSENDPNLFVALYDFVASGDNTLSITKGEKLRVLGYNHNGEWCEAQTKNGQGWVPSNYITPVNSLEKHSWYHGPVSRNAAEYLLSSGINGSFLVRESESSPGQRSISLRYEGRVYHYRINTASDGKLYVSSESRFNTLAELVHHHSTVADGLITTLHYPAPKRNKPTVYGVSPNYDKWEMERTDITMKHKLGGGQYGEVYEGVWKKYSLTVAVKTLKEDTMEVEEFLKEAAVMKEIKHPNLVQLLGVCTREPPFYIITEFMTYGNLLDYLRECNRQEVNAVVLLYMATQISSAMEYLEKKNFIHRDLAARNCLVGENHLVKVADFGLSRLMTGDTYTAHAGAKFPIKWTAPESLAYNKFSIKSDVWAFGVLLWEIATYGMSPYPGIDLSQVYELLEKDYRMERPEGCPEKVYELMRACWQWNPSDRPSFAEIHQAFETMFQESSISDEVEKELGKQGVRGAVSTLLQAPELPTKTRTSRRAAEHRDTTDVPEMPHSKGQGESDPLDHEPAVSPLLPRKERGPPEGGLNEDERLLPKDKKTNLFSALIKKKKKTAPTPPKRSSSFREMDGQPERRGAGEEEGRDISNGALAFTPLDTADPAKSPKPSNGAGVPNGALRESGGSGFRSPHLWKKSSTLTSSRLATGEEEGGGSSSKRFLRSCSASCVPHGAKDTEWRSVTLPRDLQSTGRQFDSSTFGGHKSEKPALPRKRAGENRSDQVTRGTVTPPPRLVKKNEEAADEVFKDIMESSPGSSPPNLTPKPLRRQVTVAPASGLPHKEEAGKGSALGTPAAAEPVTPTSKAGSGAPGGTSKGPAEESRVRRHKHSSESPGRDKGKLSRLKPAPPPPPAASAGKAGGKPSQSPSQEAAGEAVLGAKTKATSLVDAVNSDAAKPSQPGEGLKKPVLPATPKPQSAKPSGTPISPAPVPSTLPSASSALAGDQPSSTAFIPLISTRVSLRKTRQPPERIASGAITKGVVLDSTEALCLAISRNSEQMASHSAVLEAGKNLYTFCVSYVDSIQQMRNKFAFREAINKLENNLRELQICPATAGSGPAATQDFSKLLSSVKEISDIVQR
UniProt P15735, sequence (whole entry, looked up): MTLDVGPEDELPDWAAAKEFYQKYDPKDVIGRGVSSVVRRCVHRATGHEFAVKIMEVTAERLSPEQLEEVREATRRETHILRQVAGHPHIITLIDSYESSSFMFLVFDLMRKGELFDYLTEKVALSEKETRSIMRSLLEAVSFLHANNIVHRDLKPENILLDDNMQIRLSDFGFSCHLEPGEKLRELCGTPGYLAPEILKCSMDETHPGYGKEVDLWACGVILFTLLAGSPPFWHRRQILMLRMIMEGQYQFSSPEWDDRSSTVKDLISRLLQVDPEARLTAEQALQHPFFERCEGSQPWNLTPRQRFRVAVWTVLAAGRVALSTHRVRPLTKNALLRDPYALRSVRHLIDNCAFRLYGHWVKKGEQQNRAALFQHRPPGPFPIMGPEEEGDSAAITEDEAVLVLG
UniProt P11802, sequence (whole entry, looked up): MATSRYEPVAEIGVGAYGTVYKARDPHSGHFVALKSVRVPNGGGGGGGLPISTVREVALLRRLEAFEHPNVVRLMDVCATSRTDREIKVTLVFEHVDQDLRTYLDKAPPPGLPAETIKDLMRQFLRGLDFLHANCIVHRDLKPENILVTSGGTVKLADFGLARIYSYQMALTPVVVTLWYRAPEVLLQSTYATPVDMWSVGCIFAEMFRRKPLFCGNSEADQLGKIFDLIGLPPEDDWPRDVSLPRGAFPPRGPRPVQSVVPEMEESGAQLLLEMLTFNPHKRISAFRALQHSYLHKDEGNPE

Block 1
Compound: COc1ccc2c(c1)c(C1=C(c3c[nH]c4ccccc34)C(=O)NC1=O)cn2CCCN(C)C
Observed: enzyme activity
Action: inhibitor
Concentration: 0.5 µM
Baseline: control
target	remaining activity [%]
Platelet-derived growth factor receptor beta (PDGFRB, Homo sapiens, UniProt P09619)	75.8
Phosphorylase b kinase gamma catalytic chain, liver/testis isoform (PHKG2, Homo sapiens, UniProt P15735)	98.3
Serine/threonine-protein kinase VRK1 (VRK1, Homo sapiens, UniProt Q99986)	76.7
Tyrosine-protein kinase HCK (HCK, Homo sapiens, UniProt P08631)	111
BDNF/NT-3 growth factors receptor (NTRK2, Homo sapiens, UniProt Q16620)	88.1
Activated CDC42 kinase 1 (TNK2, Homo sapiens, UniProt Q07912)	77.9
Serine/threonine-protein kinase D3 (PRKD3, Homo sapiens, UniProt O94806)	91.9
Fibroblast growth factor receptor 2 (FGFR2, Homo sapiens, UniProt P21802)	90.7
Activin receptor type-1 (ACVR1, Homo sapiens, UniProt Q04771)	98
Mitogen-activated protein kinase kinase kinase 9 (MAP3K9, Homo sapiens, UniProt P80192)	57.6
Serine/threonine-protein kinase ULK1 (ULK1, Homo sapiens, UniProt O75385)	99
Insulin receptor-related protein (INSRR, Homo sapiens, UniProt P14616)	101
Receptor-interacting serine/threonine-protein kinase 2 (RIPK2, Homo sapiens, UniProt O43353)	70.2
RAF proto-oncogene serine/threonine-protein kinase (RAF1, Homo sapiens, UniProt P04049)	99.3
Serine/threonine-protein kinase TAO1 (TAOK1, Homo sapiens, UniProt Q7L7X3)	99.5
Serine/threonine-protein kinase PLK1 (PLK1, Homo sapiens, UniProt P53350)	104
Dual specificity tyrosine-phosphorylation-regulated kinase 2 (DYRK2, Homo sapiens, UniProt Q92630)	92.4
Mitogen-activated protein kinase kinase kinase kinase 5 (MAP4K5, Homo sapiens, UniProt Q9Y4K4)	27.7
Serine/threonine-protein kinase Sgk3 (SGK3, Homo sapiens, UniProt Q96BR1)	101

Block 2
Structure (SMILES): CCC(=O)N[C@@H]1CC[C@H](C(=O)N(C)c2ccc(-c3nc4ccccc4o3)cc2)C1
Observed: cell-free assay
Technique: competition with immobilised ligand
Concentration: 1 µM
target	remaining binding [%]
Tyrosine-protein kinase ABL1, phosphorylated (ABL1, Homo sapiens, UniProt P00519)	96
Serine/threonine-protein kinase DCLK1 (DCLK1, Homo sapiens, UniProt O15075)	88
Cyclin-dependent kinase 4, with cyclin D1 (CDK4, Homo sapiens, UniProt P11802)	96
Epithelial discoidin domain-containing receptor 1 (DDR1, Homo sapiens, UniProt Q08345)	100
Serine/threonine-protein kinase 3 (STK3, Homo sapiens, UniProt Q13188)	100
Calcium/calmodulin-dependent protein kinase type 1B (PNCK, Homo sapiens, UniProt Q6P2M8)	100
Mitogen-activated protein kinase kinase kinase 14 (MAP3K14, Homo sapiens, UniProt Q99558)	100
Cyclin-G-associated kinase (GAK, Homo sapiens, UniProt O14976)	100
Serine/threonine-protein kinase ULK1 (ULK1, Homo sapiens, UniProt O75385)	100
Phosphatidylinositol 4,5-bisphosphate 3-kinase catalytic subunit alpha isoform (PIK3CA, Homo sapiens, UniProt P42336, C420R)	70
Tyrosine-protein kinase Fyn (FYN, Homo sapiens, UniProt P06241)	85
Serine/threonine-protein kinase Nek7 (NEK7, Homo sapiens, UniProt Q8TDX7)	100
Mitogen-activated protein kinase 6 (MAPK6, Homo sapiens, UniProt Q16659)	100
Leukocyte tyrosine kinase receptor (LTK, Homo sapiens, UniProt P29376)	93
Mitogen-activated protein kinase kinase kinase kinase 4 (MAP4K4, Homo sapiens, UniProt O95819)	100
Leucine-rich repeat serine/threonine-protein kinase 2 (LRRK2, Homo sapiens, UniProt Q5S007)	100
High affinity nerve growth factor receptor (NTRK1, Homo sapiens, UniProt P04629)	100

Block 3
SMILES: COc1cc(C(=O)N2CCC(N3CCN(C)CC3)CC2)ccc1Nc1ncc2c(n1)N(C)c1ccccc1C(=O)N2C
target	assay	conditions	remaining activity [%]
IRAK4	kinase activity	10 µM	94 ± 4
TBK1	kinase activity	10 µM	104 ± 13
TRKA	kinase activity	10 µM	32 ± 35
Aurora A	kinase activity	10 µM	5
CHK2	kinase activity	1 µM	38 ± 9
DYRK2	kinase activity	10 µM	98 ± 5
LCK	kinase activity	10 µM	99 ± 5
DCLK1	kinase activity, KiNativ profiling	1 µM	22
PRAK	kinase activity	1 µM	102 ± 13
PKA	kinase activity	10 µM	93 ± 3
p38d MAPK	kinase activity	10 µM	106 ± 4
NUAK family SNF1-like kinase 1 (NUAK1, Homo sapiens, UniProt O60285)	–	1 µM	50 ± 3
p38a MAPK	kinase activity	10 µM	96 ± 9

Block 4
SMILES: CC(=O)N[C@@H](Cc1c[nH]c2ccccc12)C(=O)N[C@@H](CCC(=O)C=[N+]=[N-])C(=O)OC(C)C
Dose: dose not given
Baseline: vehicle
assay	test system	log2 fold change
refers to: 2-hydroxybutyrate/2-hydroxyisobutyrate	mouse, EL4 tumour-bearing, EL4 tumour	-0.0911
refers to: 3'-AMP	mouse, EL4 tumour-bearing, EL4 tumour	1.65
refers to: spermine	mouse, EL4 tumour-bearing, EL4 tumour	0.305
refers to: phosphate	mouse, EL4 tumour-bearing, EL4 tumour	0.0828
refers to: p-cresol sulfate	mouse, EL4 tumour-bearing, EL4 tumour	-0.714
metabolomic profiling, refers to: tartronate (hydroxymalonate)	Mus musculus, EL4 tumour	0.967
refers to: betaine	mouse, EL4 tumour-bearing, EL4 tumour	-0.599
refers to: succinimide	mouse, EL4 tumour-bearing, EL4 tumour	0.251
refers to: catechol sulfate	mouse, EL4 tumour-bearing, EL4 tumour	1.07
refers to: hexose diphosphates	Mus musculus, EL4 tumour	0.346
refers to: o-Tyrosine	mouse, EL4 tumour-bearing, EL4 tumour	0.449
refers to: histamine	mouse, EL4 tumour-bearing, EL4 tumour	0.422
refers to: N-acetylhistidine	mouse, EL4 tumour-bearing, EL4 tumour	-0.177
refers to: spermidine	mouse, EL4 tumour-bearing, EL4 tumour	-0.0627
refers to: gamma-glutamyl-epsilon-lysine	mouse, EL4 tumour-bearing, EL4 tumour	0.289
refers to: 3-(3-hydroxyphenyl)propionate sulfate	mouse, EL4 tumour, tumour	0.331
refers to: thymine	mouse, EL4 tumour-bearing, EL4 tumour	0.181
refers to: gulonate*	mouse, EL4 tumour-bearing, EL4 tumour	0.426
refers to: glutamate gamma-methyl ester	Mus musculus, EL4 tumour	-2.92
refers to: alpha-tocopherol	mouse, EL4 tumour-bearing, EL4 tumour	0.591

Repeated from above (block 4):
assay	test system	log2 fold change
refers to: gamma-glutamyl-epsilon-lysine	mouse, EL4 tumour-bearing, EL4 tumour	0.289
refers to: 2-hydroxybutyrate/2-hydroxyisobutyrate	mouse, EL4 tumour-bearing, EL4 tumour	-0.0911
refers to: spermine	mouse, EL4 tumour-bearing, EL4 tumour	0.305
refers to: 3'-AMP	mouse, EL4 tumour-bearing, EL4 tumour	1.65
refers to: betaine	mouse, EL4 tumour-bearing, EL4 tumour	-0.599
refers to: hexose diphosphates	Mus musculus, EL4 tumour	0.346
refers to: p-cresol sulfate	mouse, EL4 tumour-bearing, EL4 tumour	-0.714
refers to: succinimide	mouse, EL4 tumour-bearing, EL4 tumour	0.251
